Published values collected from several papers.

Compound | organism | assay | system | setting | scale | MIC
O=C(NCc1nc(-c2ccc(Br)cc2)c[nH]1)Nc1ncc(Sc2ccccn2)s1 | Bacteroides fragilis | broth microdilution | ATCC 25285 | without verapamil |  | > 128 µM
C[N+]1=C2C(c3ccc([N+](=O)[O-])cc3)=[N+]([O-])c3ccccc3N2CCC1 | Porphyromonas asaccharolytica |  |  |  |  | 0.25 µg/mL
N#Cc1ccc(-c2c[nH]c(CNC(=O)Nc3ncc(Sc4ccccn4)s3)n2)cc1 | Bacteroides fragilis | broth microdilution | ATCC 25285 | without verapamil |  | > 128 µM
CC[C@H](C)[C@@H]1NC(=O)CNC(=O)[C@H](CCCCN)NC(=O)[C@H](C)NC(=O)[C@H](CCC(=O)O)NC(=O)[C@H](Cc2ccccc2)NC(=O)[C@H](CO)NC(=O)[C@H](CC(C)C)NC(=O)[C@H](C(C)C)NC(=O)[C@H](CC(=O)O)NC(=O)[C@@H](NC(=O)[C@@H](NC(=O)[C@@H](N)C(C)C)[C@@H](C)O)CSSC[C@@H]2NC(=O)[C@H](CO)NC(=O)CNC(=O)CNC(=O)[C@H](CCCCN)NC(=O)[C@H](CCCCN)NC(=O)[C@H](CCCNC(=N)N)NC(=O)[C@H](CC(C)C)NC(=O)[C@H](C)NC(=O)[C@H]([C@@H](C)CC)NC(=O)[C@H](CSSC[C@@H](C(=O)N[C@@H](CCCNC(=N)N)C(=O)N[C@@H](CC(N)=O)C(=O)O)NC(=O)[C@H](C(C)C)NC(=O)[C@H](C)NC(=O)[C@H](C(C)C)NC(=O)CNC(=O)[C@H](CC(N)=O)NC(=O)[C@H](CCC(N)=O)NC2=O)NC(=O)[C@H](Cc2c[nH]cn2)NC(=O)[C@H](CC(C)C)NC(=O)[C@H](C)NC(=O)[C@H](C)NC(=O)[C@H](C)NC(=O)[C@H](CO)NC(=O)[C@H](Cc2c[nH]cn2)NC(=O)[C@H](CC(N)=O)NC(=O)[C@H](C(C)C)NC(=O)[C@H](C)NC1=O | Candida parapsilosis | broth microdilution | ATCC 22019 | 28 °C |  | 12.5 to 25 µM
COC1C=COC2(C)Oc3c(C)c(O)c4c(c3C2=O)C2=NC3(CCN(CC(C)C)CC3)NC2=C(NC(=O)C(C)=CC=CC(C)C(O)C(C)C(O)C(C)C(OC(=O)c2cccnc2)C1C)C4=O (stereo not shown) | Mycobacteroides abscessus |  | ATCC 19977 arr knockout |  |  | 0.026 µM
CC[C@H](C)[C@H](NC(=O)[C@H](CC(C)C)NC(=O)[C@H](CCC(N)=O)NC(=O)[C@H](CO)NC(=O)[C@H](CCCNC(=N)N)NC(=O)[C@@H](N)CO)C(=O)N[C@H](C(=O)N[C@@H](Cc1c[nH]cn1)C(=O)N[C@@H](CCC(N)=O)C(=O)N[C@@H](CCCNC(=N)N)C(=O)N[C@@H](CC(C)C)C(=O)N[C@@H](Cc1ccccc1)C(N)=O)C(C)C | Candida parapsilosis | broth microdilution | RPMI MOPS-buffered |  |  | > 400 µg/mL
[O-][N+]1=C(c2ccsc2)C2=NCCCN2c2ccccc21 | Porphyromonas asaccharolytica |  |  |  |  | 0.125 µg/mL
CC[C@H](C)[C@H](NC(=O)CNC(=O)[C@H](CCCCN)NC(=O)[C@H](C)NC(=O)[C@H](CCC(=O)O)NC(=O)[C@H](Cc1ccccc1)NC(=O)[C@H](CO)NC(=O)[C@H](CC(C)C)NC(=O)[C@@H](NC(=O)[C@H](CC(=O)O)NC(=O)[C@H](C)NC(=O)[C@@H](NC(=O)[C@@H](N)C(C)C)[C@@H](C)O)C(C)C)C(=O)N[C@@H](C)C(=O)N[C@H](C(=O)N[C@@H](CC(N)=O)C(=O)N[C@@H](Cc1c[nH]cn1)C(=O)N[C@@H](CO)C(=O)N[C@@H](C)C(=O)N[C@H]1CSSC[C@@H]2NC(=O)[C@H](C(C)C)NC(=O)CNC(=O)[C@H](CC(N)=O)NC(=O)[C@H](CCC(N)=O)NC(=O)[C@H](C)NC(=O)[C@H](CO)NC(=O)CNC(=O)CNC(=O)[C@H](CCCCN)NC(=O)[C@H](CCCCN)NC(=O)[C@H](CCCNC(=N)N)NC(=O)[C@H](CC(C)C)NC(=O)[C@H](C)NC(=O)[C@H]([C@@H](C)CC)NC(=O)[C@H](CSSC[C@@H](C(=O)N[C@@H](CCCNC(=N)N)C(=O)N[C@@H](CC(N)=O)C(=O)O)NC(=O)[C@H](C(C)C)NC2=O)NC(=O)[C@H](Cc2c[nH]cn2)NC(=O)[C@H](CC(C)C)NC(=O)[C@H](C)NC1=O)C(C)C | Candida parapsilosis | broth microdilution | ATCC 22019 | 28 °C |  | 12.5 µM
CC[C@H](C)[C@H](NC(=O)[C@H](CCCCN)NC(=O)[C@H](CCCNC(=N)N)NC(=O)[C@H](Cc1c[nH]c2ccccc12)NC(=O)[C@@H](NC(=O)[C@H](CC(N)=O)NC(=O)[C@H](CCCNC(=N)N)NC(=O)[C@@H](NC(=O)[C@H](CCCNC(=N)N)NC(=O)[C@H](CC(N)=O)NC(=O)[C@H](CCCNC(=N)N)NC(=O)[C@H](CC(C)C)NC(=O)[C@H](CCCNC(=N)N)NC(=O)[C@H](CCCNC(=N)N)NC(=O)[C@H](Cc1ccccc1)NC(=O)[C@H](CCCNC(=N)N)NC(=O)CN)[C@@H](C)CC)[C@@H](C)CC)C(=O)NCC(=O)N1CCC[C@H]1C(=O)N[C@H](C(=O)N[C@@H](C)C(=O)NCC(=O)N1CCC[C@H]1C(=O)N[C@@H](CC(C)C)C(=O)N[C@H](C(=O)N[C@@H](CO)C(=O)N[C@@H](CCCNC(=N)N)C(=O)N[C@@H](Cc1ccccc1)C(=O)NCC(=O)O)[C@@H](C)CC)[C@@H](C)CC | gram-negative bacteria | agar dilution | clinical isolates | summary range |  | 8 to 32 µg/mL
CC[C@H](C)[C@H](NC(=O)[C@H](Cc1c[nH]c2ccccc12)NC(=O)[C@H](CCCNC(=N)N)NC(=O)[C@H](CCC(N)=O)NC(=O)[C@@H](NC(=O)[C@H](Cc1c[nH]c2ccccc12)NC(=O)[C@H](CCCNC(=N)N)NC(=O)[C@H](CCCNC(=N)N)NC(=O)[C@H](C)NC(=O)[C@H](C)NC(=O)[C@H](C)NC(=O)[C@@H](NC(=O)[C@H](CCCCN)NC(=O)[C@@H]1CCCN1C(=O)[C@H](CCCNC(=N)N)NC(=O)[C@H](Cc1c[nH]c2ccccc12)NC(=O)[C@H](CCCNC(=N)N)NC(=O)[C@H](CCCNC(=N)N)NC(=O)[C@@H](NC(=O)[C@H](Cc1c[nH]c2ccccc12)NC(=O)[C@H](CCCNC(=N)N)NC(=O)[C@H](CCC(N)=O)NC(=O)[C@@H](NC(=O)[C@H](Cc1c[nH]c2ccccc12)NC(=O)[C@H](CCCNC(=N)N)NC(=O)[C@@H](N)CCCNC(=N)N)C(C)C)[C@@H](C)CC)C(C)C)C(C)C)C(=O)N[C@@H](CCCNC(=N)N)C(=O)N[C@@H](CCCNC(=N)N)C(=O)N[C@@H](Cc1c[nH]c2ccccc12)C(=O)N[C@@H](CCCNC(=N)N)C(=O)N1CCC[C@H]1C(=O)N[C@@H](CCCCN)C(=O)N[C@H](C(N)=O)C(C)C | Aspergillus fumigatus | metabolic activity, resazurin | azole-resistant | 27 h, 37 °C |  | 1 µM
C[N+]1=C2C(c3ccccc3)=[N+]([O-])c3ccccc3N2CCC1 | Porphyromonas asaccharolytica |  |  |  |  | 4 µg/mL
CC1C(=NOCc2cn(-c3ccccc3)nn2)C(C)C(c2ccc(Br)cc2)OC1c1ccc(Br)cc1 (stereo not shown) | Aspergillus niger | microbial growth |  |  |  | 6.3 µg/mL
[O-][N+]1=C(c2ccc(Cl)cc2)C2=NCCCN2c2ccccc21 | Porphyromonas gingivalis | microbial growth | ATCC33277 |  |  | 0.125 µg/mL
CCCCCCCC/C=C\CCCCc1cc(=O)c2ccccc2n1C | Mycolicibacterium smegmatis | spot culture on 7H10 agar | mc2 155 | 3 days, 37 °C |  | 10 µg/mL
CC[C@H](C)[C@H](NC(=O)[C@@H](NC(=O)CN)C(C)C)C(=O)N[C@@H](Cc1ccccc1)C(=O)N[C@@H](CC(N)=O)C(=O)N[C@@H](C)C(=O)N[C@@H](CC(C)C)C(=O)N[C@@H](CCCCN)C(=O)NCC(=O)N[C@H](C(=O)N[C@@H](C)C(=O)N[C@@H](CCCCN)C(=O)N[C@H](C(=O)N[C@H](C(=O)N[C@@H](C)C(=O)N[C@@H](C)C(=O)N[C@@H](CCC(N)=O)C(=O)N[C@@H](CC(C)C)C(=O)N[C@@H](CC(C)C)C(=O)N[C@@H](CCCCN)C(=O)N[C@@H](CCCCN)C(=O)N[C@@H](C)C(=O)N[C@@H](CCCNC(=N)N)C(=O)N[C@H]1CSSC[C@@H](C(=O)O)NC(=O)[C@H](CO)NC(=O)[C@H](CCCCN)NC(=O)[C@H](CC(=O)O)NC(=O)[C@H](CC(C)C)NC(=O)[C@H](CCCCN)NC1=O)C(C)C)[C@@H](C)O)C(C)C | Staphylococcus aureus |  | MRSA NCTC 12493, Mueller-Hinton broth | together with: NaCl 150 mM |  | 2 µM
CCCCCCCCCCCCCC(=O)N[C@H](CCN)C(=O)N[C@@H]1C(=O)N[C@@H](CCN)C(=O)N[C@@H](CC(C)C)C(=O)N[C@@H](CCN)C(=O)N[C@H](Cc2ccccc2)C(=O)N[C@@H](CC(C)C)C(=O)N[C@@H](CCN)C(=O)N[C@H](CCN)C(=O)N[C@@H](C(C)C)C(=O)N[C@@H](CC(=O)O)C(=O)O[C@@H]1C | MDR Gram-positive and Gram-negative bacteria |  |  |  | up to | 2 to 4 µg/mL
OB(O)c1ccc(OCc2ccccc2)nc1F | Klebsiella aerogenes | bacterial growth | AmpC-overproducing clinical isolate | cefotaxime alone |  | 8 µg/mL
CC[C@H](C)[C@H](NC(=O)[C@H](CC(C)C)NC(=O)CCNC(=O)[C@H](CO)NC(=O)[C@H](CCCNC(=N)N)NC(=O)[C@@H](N)CO)C(=O)N[C@H](C(=O)N[C@@H](Cc1c[nH]cn1)C(=O)N[C@@H](CCC(N)=O)C(=O)N[C@@H](CCCNC(=N)N)C(=O)N[C@@H](CC(C)C)C(=O)N[C@@H](Cc1ccccc1)C(N)=O)C(C)C | Candida parapsilosis | broth microdilution | RPMI MOPS-buffered |  |  | > 400 µg/mL
[O-][N+]1=C(c2ccccc2)C2=NCCCN2c2ncccc21 | Porphyromonas asaccharolytica |  |  |  |  | ≤ 0.06 µg/mL
CC[C@H](C)[C@H](NC(=O)[C@H](CC(C)C)NC(=O)[C@H](CCC(=O)O)NC(=O)[C@H](CO)NC(=O)[C@H](CCCNC(=N)N)NC(=O)[C@@H](N)CO)C(=O)N[C@H](C(=O)N[C@@H](CCCNC(=N)N)C(=O)N[C@@H](CCC(N)=O)C(=O)N[C@@H](CCCNC(=N)N)C(=O)N[C@@H](CC(C)C)C(=O)N[C@@H](Cc1ccccc1)C(N)=O)C(C)C | Candida parapsilosis | broth microdilution | RPMI MOPS-buffered |  |  | > 400 µg/mL
CC[C@H](C)[C@H](NC(=O)[C@@H]1CC(=O)N[C@@H](CO)C(=O)N[C@@H](CC(C)C)C(=O)NCC(=O)N[C@@H](CO)C(=O)N[C@@H](CO)C(=O)N2CCC[C@H]2C(=O)N[C@@H](Cc2ccc(O)cc2)C(=O)N[C@@H](CC(N)=O)C(=O)N1)C(=O)N[C@@H](CC(C)C)C(=O)NCC(=O)N[C@@H](Cc1ccc(O)cc1)C(=O)N1CCC[C@H]1C(=O)N[C@@H](C)C(=O)N[C@@H](CC(C)C)C(=O)N[C@H](C(=O)N[C@H](C(=O)N[C@H](C(=O)N[C@@H](Cc1ccc(O)cc1)C(=O)N1CCC[C@H]1C(=O)O)[C@@H](C)CC)C(C)C)[C@@H](C)CC | Talaromyces stipitatus |  |  |  |  | > 128 µg/mL
[O-][N+]1=C(c2ccccc2)C2=NCCN2c2ccccc21 | Porphyromonas asaccharolytica |  |  |  |  | ≤ 0.06 µg/mL
Cc1ccc(C2OC(c3ccc(C)cc3)C(C)C(=NOCc3cn(-c4ccccc4)nn3)C2C)cc1 (stereo not shown) | Aspergillus niger | microbial growth |  |  |  | 12.5 µg/mL
C[N+]1=C2C(c3ccc(Cl)cc3)=[N+]([O-])c3ccccc3N2CCC1 | Finegoldia magna |  |  |  |  | > 16 µg/mL
c1ccc(CCNC2CCCc3c2[nH]c2ccc(C4CCCCC4)cc32)cc1 (stereo not shown) | Staphylococcus aureus | broth microdilution | HG001 daptomycin-resistant, cation-adjusted Mueller-Hinton broth |  |  | 4 µg/mL
COc1ccc(C2=[N+]([O-])c3ccccc3N3CCCN=C23)cc1 | Porphyromonas gingivalis | microbial growth | ATCC33277 |  |  | ≤ 0.06 µg/mL
S=C(NCc1ccccn1)NCc1ccccn1 | Agrobacterium | microbial growth, well diffusion |  |  |  | 4.02 µg/mL
CCCCc1ccc(-c2nc(C)c(C(C)=NNC(=N)N)s2)cc1 | Staphylococcus aureus |  | three VRSA strains | all strains |  | 0.7 µg/mL

For quick reference, copied from above:
Compound | organism | assay | system | setting | scale | MIC
CC1C(=NOCc2cn(-c3ccccc3)nn2)C(C)C(c2ccc(Br)cc2)OC1c1ccc(Br)cc1 (stereo not shown) | Aspergillus niger | microbial growth |  |  |  | 6.3 µg/mL
